# Measurements collected from several papers.
# Compare with care: the assays were run in different laboratories. Values joined by “and” are separate records of one study, mostly repeats; a detail may differ. Numbers after ± are the reported error.
SMILES,cell line,test,setting,how to read,quantity,result
CCCCCCCCCCCCCCCC(=O)NCCO,human iPSC-derived cardiomyocytes,"MyBP-C/MYH ratio, plate-normalised SD score","concentration not given, primary screen",direction not given,activity score,4
COc1cccc2c1C(=O)c1c(O)c3c(c(O)c1C2=O)C[C@@](O)(C(=O)CO)C[C@@H]3O[C@H]1C[C@H](N)[C@H](O)[C@H](C)O1,HepG2,measured: PERK protein,"24 h, distribution mode 1",,point of departure,0.0324 µM
CC/C(=N\NC(=O)C(C)Nc1ccccc1)c1ccc(O)c(C)c1O (centres unmarked),SK-OV-3,"Western blot, measured: YAP","10 µM, 1 h, 2D culture, unit not given",reference: β-actin,protein level,1.61 ± 0.28
CN(C)CCCOc1cc(NC(=O)c2cccc(C(=O)Nc3cc(OCCCN(C)C)c4ccccc4n3)n2)nc2ccccc12,U2OS,"cell viability, CellTiter-Glo",72 h,reference: IC50 U2OS over WI-38,selectivity ratio,1
COc1cccc(OC)c1-c1cc(C(=O)NC2(C(=O)O)C3CC4CC(C3)CC2C4)nn1-c1ccc(C(=O)N(C)CCCN(C)CCCN(C)C(=O)CN2CCN(CC(=O)[O-])CCN(CC(=O)[O-])CCN(CC(=O)[O-])CC2)cc1C(C)C.[177Lu+3] (centres unmarked),HT-29,,24 h,reference: internalized,efflux,79 ± 4%
CCN(CC)c1ccc2c(c1)oc(=O)c1c(Cl)cc(=O)oc12,C127 LDR GFP reporter cells,"silenced GFP reporter induction, activator, high-content imaging","retest, two-run mean",,efficacy,85%
OC(CCN1CCCCC1)(c1ccccc1)c1ccccc1,human iPSC-derived cardiomyocytes,"MyBP-C/MYH ratio, plate-normalised SD score","concentration not given, primary screen",direction not given,activity score,3.5
Cn1cncc1C1=CN(c2ncnc3[nH]cnc23)CCS1,M14,,melanoma cell line,,GI50,8.5 µM
O=c1[nH]nc(OCCCc2ccc(Cl)cc2)c(NCc2cccnc2)c1Br,HEK-293T,"RNA-seq GSEA, measured: HALLMARK_PROTEIN_SECRETION",concentration not given,direction not given,normalized enrichment score,1.75
Cn1cc(Nc2nccc(-c3ccc4c(c3)CN(C3COC3)CC[C@H]4NC(=O)c3cn(C(C)(C)C)nn3)n2)cn1,mouse splenic B cells,measured: RAN signalling,"30 mg/kg, IgD-activated in vivo","reference: vehicle, direction not given",pathway activation z-score,-3
CC(=O)c1nn(-c2ccc(Cl)cc2)/c(=N/N=C(\C)c2ccc(NC(=O)c3ccccc3)cc2)s1,HepG2,,10 µM,,toxicity,96.4%
Cc1cccc(-c2[nH]c(CNc3ccccc3F)nc2-c2ccc3ncnn3c2)n1,RPMI-8226,"flow cytometry, measured: CD162",concentration not given,reference: comparator compound alone,surface marker level,55.9%
CCn1cc(-c2cc(Cn3ccnc3)cc3c2CCN([C@H](c2cc(OC)ccn2)C2CC2)C3=O)c(C(F)(F)F)n1,HH,"cell growth, inhibitor",120 h,,EC50,> 30 µM
C=CC1=C(C)c2cc3[n-]c(cc4nc(cc5[n-]c(cc1n2)c(C)c5C=C)C(C)=C4CCC(=O)O)c(CCC(=O)O)c3C.[Zn+2],SH-SY5Y,"RNA-seq, measured: DKK2 mRNA","5 µM, 5 h",reference: untreated cells,fold change,2.33
CN1CCN(CCCN2c3ccccc3Sc3ccc(C(F)(F)F)cc32)CC1,human iPSC-derived cardiomyocytes,"MyBP-C/MYH ratio, plate-normalised SD score","concentration not given, primary screen",direction not given,activity score,5.2
O=C(Nc1nnc2[nH]c(=S)[nH]c(-c3ccc(Cl)cc3)c1-2)c1ccccc1,M14,SRB,"10 µM, NCI60 single-dose screen",reference: untreated,cell growth,101%
CN(C)c1ccc(C(=C2C=CC(=[N+](C)C)C=C2)c2ccc(N(C)C)cc2)cc1,human iPSC-derived cardiomyocytes,"MyBP-C/MYH ratio, plate-normalised SD score","concentration not given, primary screen",direction not given,activity score,5.9
Clc1nc(NCc2ccco2)c2[nH]cnc2n1,FD iPSC-derived cardiomyocytes,"alternative splicing, RNA-seq, measured: CMYA5 exon chr5:79747090-79747113",unit not given,reference: DMSO minus compound,ΔPSI,0.2
CO/N=C1\C[C@]2(C[C@@H]3C[C@@H](C/C=C(\C)C[C@@H](C)/C=C/C=C4\CO[C@@H]5[C@H](O)C(C)=C[C@@H](C(=O)O3)[C@]45O)O2)O[C@H](/C(C)=C/C(C)C)[C@H]1C,human iPSC-derived cardiomyocytes,"MyBP-C/MYH ratio, plate-normalised SD score","concentration not given, primary screen",direction not given,activity score,12
O=C(CCCSc1nc2ccccc2c(=O)[nH]1)Nc1ccc(OC(F)F)cc1,"cells, COS-1, expressing proMMP-9","cell migration, 2D collagen dot migration","50 µM, 18 h",,inhibition,78 ± 3%
CCCN1CCN(c2ccc3nc(-c4ccc5nc(-c6cc(OC)ccc6OC)[nH]c5c4)[nH]c3c2)CC1,M14,SRB,"10 µM, 48 h",,growth percent,111%
COc1ccc(NC(=S)N/N=C/c2cccc3cc4ccccc4nc23)cc1,HeLa,annexin V/PI flow cytometry,"IC25, 48 h, added: N-acetylcysteine",,necrotic cells,2.8 ± 0.1%
C[C@H](CCC(=O)O)[C@H]1CC[C@H]2[C@@H]3CC[C@@H]4C[C@H](O)CC[C@]4(C)[C@H]3C[C@H](O)[C@]12C,HIEC,,"concentration not given, added: lithocholic acid",reference: lithocholic acid alone,β-catenin expression,decreased
O=C1CC[C@@H](C(=O)N2CSC[C@H]2C(=O)O)N1,human iPSC-derived cardiomyocytes,"MyBP-C/MYH ratio, plate-normalised SD score","concentration not given, primary screen",direction not given,activity score,3.2
Cn1cc(-c2ccc(-c3cncc(Cl)c3N3CCC4(CCNC4=O)CC3)cc2)cn1,COLO 205,"microarray, measured: OPTN","concentration not given, 2 h, gene set Optineurin",reference: untreated cells,fold change in expression,4.15
COc1cc(/C=C/c2ccc(O)cc2)cc(OC)c1,MYBPC3 iPSC cardiomyocytes,plate-normalised,"concentration not given, 24 h, hit retest",,MyBP-C level,0.7%
CCn1cc(-c2cc(Cn3ccoc3=N)cc3c2CCN([C@@H](C)c2cc(OC)ccn2)C3=O)c(C(F)(F)F)n1,MDA-MB-436,"cell growth, inhibitor",120 h,,EC50,0.117 µM
Cc1cc(Nc2ncc(Cl)c(Nc3ccccc3S(=O)(=O)C(C)C)n2)c(OC(C)C)cc1C1CCNCC1,CLB-BAR,"phosphoproteomics LC-MS/MS, measured: BOD1L phosphorylation","200 nM, 60 min",reference: untreated,log2 fold change,-1.64
COc1cc(/C=C/C(=O)N2CCC=CC2=O)cc(OC)c1OC,MDA-MB-468,"quantitative RT-PCR, measured: Skp1","30 µM, 8 h",reference: untreated cells,mRNA level,106 ± 7.2%
CCCCCCCCCCCCCCCC[N+](C)(C)CCN(Cc1ccc(OC)cc1)c1ncccn1,human iPSC-derived cardiomyocytes,"MyBP-C/MYH ratio, plate-normalised SD score","concentration not given, primary screen",direction not given,activity score,3.1
COc1ccc(Nc2nc3c(S(=O)(=O)c4ccccc4)nnn3c3ccc(Cl)cc23)cc1,C127 LDR GFP reporter cells,"silenced GFP reporter induction, activator, high-content imaging","independent samples, two-run mean",,maximum efficacy,16%
O=C(/C=C/C=C/C=C/C1CCCCC1)NC1=C[C@@](O)(/C=C/C=C/C=C/C(=O)NC2=C(O)CCC2=O)[C@@H]2O[C@@H]2C1=O,NCI-H2347,"cell growth, CellTiter-Glo",78 h,,GI50,12.2 µM
CC1(C)CCC(CN2CCN(c3ccc(C(=O)NS(=O)(=O)c4ccc(NCC5CCOCC5)c([N+](=O)[O-])c4)c(Oc4cnc5[nH]ccc5c4)c3)CC2)=C(c2ccc(Cl)cc2)C1,K562,"annexin V/PI flow cytometry, measured: annexin V+/PI+","3.2 µM, 24 h",,late apoptotic cells,1.2%
Cn1cc(-n2cnc3c(NCc4nc5cc(Cl)c(Cl)cc5[nH]4)nc(N4CCOCC4)nc32)cn1,MDA-MB-231,"cell viability, CellCounting-Lite","0.9145 nM, 37 °C",higher = more viable cells,luminescence signal,448000 a.u. and 425000 a.u. and 481000 a.u.
COc1cnc2cccc(N3CCc4c(cc(Cn5ccnc5C)cc4-c4cn(C)nc4C(F)(F)F)C3=O)c2c1,MDA-MB-436,"cell growth, inhibitor",120 h,,EC50,0.154 µM
CSCC[C@H](NC(=O)[C@H](Cc1ccc(OS(=O)(=O)O)cc1)NC(=O)[C@@H](N)CC(=O)O)C(=O)NCC(=O)N[C@@H](Cc1c[nH]c2ccccc12)C(=O)N[C@@H](CCSC)C(=O)N[C@@H](CC(=O)O)C(=O)N[C@@H](Cc1ccccc1)C(N)=O,HEK293T control virus,"agonist, calcium mobilization","0.0256 nM, no receptor expressed",higher = more calcium release,calcium response,0.131 a.u. and 0.0891 a.u.
COc1ccc(C(=O)/C=C/Sc2nc3ccccc3o2)cc1,C127 LDR GFP reporter cells,"silenced GFP reporter induction, activator, high-content imaging","retest, two-run mean",,efficacy,38%
CC(C)NCC(O)c1ccc(O)c(O)c1 (centres unmarked),mouse ventricular cardiomyocytes,,"dose not given, 0.331 s",,sarcomere length,1.8 µm

# Excerpt of the above:
SMILES,cell line,test,setting,how to read,quantity,result
COc1cc(/C=C/c2ccc(O)cc2)cc(OC)c1,MYBPC3 iPSC cardiomyocytes,plate-normalised,"concentration not given, 24 h, hit retest",,MyBP-C level,0.7%
CCN(CC)c1ccc2c(c1)oc(=O)c1c(Cl)cc(=O)oc12,C127 LDR GFP reporter cells,"silenced GFP reporter induction, activator, high-content imaging","retest, two-run mean",,efficacy,85%
